Published values pooled from the literature.
Parts stem from different laboratories: compare values within a part only. Substitutions count along the parent as printed.

Block 1 — target: CCNA2, cyclin fold, Cln2 fusion (human); method: yeast growth competition, sequencing; sample: yeast; setting: weak parent motif; baseline: not given; direction: higher = stronger binding
Parent: SLBP docking peptide (human); ARYKRKLLINDFG
Under “normalised enrichment score”, `R2F` is recorded as 1.17.
`L8D` — result for “normalised enrichment score”: 0.182.
`A1C` — result for “normalised enrichment score”: 0.742.
`D11H`: “normalised enrichment score” 1.69.
Under “normalised enrichment score”, `F12A` is recorded as 0.808.
`I9F` — result for “normalised enrichment score”: 4.16.
Under “normalised enrichment score”, `I9Q` is recorded as 0.991.
`G13M`: “normalised enrichment score” 2.45.
`F12R` — result for “normalised enrichment score”: 1.38.
For `G13E`, “normalised enrichment score” read 1.14.
Under “normalised enrichment score”, `N10V` is recorded as 0.991.
Under “normalised enrichment score”, `K4D` is recorded as 0.446.
For `L7G`, “normalised enrichment score” read 1.86.
For `D11M`, “normalised enrichment score” read 2.73.
Under “normalised enrichment score”, `K4E` is recorded as 0.42.
Under “normalised enrichment score”, `R2E` is recorded as 1.64.

Block 2 — method: aptamer microarray, sandwich; form: DNA with 2'F-ANA; sample: in vitro; concentration: 200 nM; added: Cy3 exosite-II aptamer, 400 nM; direction: higher = stronger binding; strand: GGTTGGTGTGGTTGG
Target: Prothrombin, mature alpha-thrombin (F2, Homo sapiens, UniProt P00734)
Setting: whole 15-mer aptamer, many near background
`2'F-ANA at 1 2 3 4 5 6 8 9 13 15` — result for “mean fluorescence intensity”: 49.8 a.u.
For `2'F-ANA at 1 2 3 4 5 11 12 13 14`, “mean fluorescence intensity” read 47 a.u.
Under “mean fluorescence intensity”, `2'F-ANA at 1 3 4 6 9 11 12 15` is recorded as 258 a.u.
`2'F-ANA at 1 4 5 6 12` — result for “mean fluorescence intensity”: 117 a.u.
For `2'F-ANA at 1 2 3 4 5 10 12 15`, “mean fluorescence intensity” read 62.9 a.u.
`2'F-ANA at 1 5 7 8 9 10 13 14 15`: “mean fluorescence intensity” 56.1 a.u.
`2'F-ANA at 4 6 12 14`: “mean fluorescence intensity” 142 a.u.
`2'F-ANA at 6 7 10 13 14 15` — result for “mean fluorescence intensity”: 113 a.u.
`2'F-ANA at 1 2 3 7 9 10 15`: “mean fluorescence intensity” 126 a.u.
Under “mean fluorescence intensity”, `2'F-ANA at 1 4 5 6 8 9 10 14 15` is recorded as 47.4 a.u.
For `2'F-ANA at 14 15`, “mean fluorescence intensity” read 220 a.u.
For `2'F-ANA at 1 4 5 8 10 11 12 13 14`, “mean fluorescence intensity” read 47.6 a.u.
Under “mean fluorescence intensity”, `2'F-ANA at 1 2 3 4 5 8 9 13 14` is recorded as 44 a.u.
Under “mean fluorescence intensity”, `2'F-ANA at 1 3 4 5 6 7 13 15` is recorded as 51.1 a.u.
For `2'F-ANA at 1 3 5 9 10 12 13`, “mean fluorescence intensity” read 46.3 a.u.
`2'F-ANA at 2 3 6 9 14`: “mean fluorescence intensity” 363 a.u.
`2'F-ANA at 1 2 5 8 9 10 12 14 15` — result for “mean fluorescence intensity”: 66.5 a.u.
For `2'F-ANA at 4 5 8 9 12 14`, “mean fluorescence intensity” read 45.1 a.u.
`2'F-ANA at 2 4 6 8 10 11 12 13` — result for “mean fluorescence intensity”: 86.5 a.u.
`2'F-ANA at 3 5 6 8 10 12 14`: “mean fluorescence intensity” 48.1 a.u.
For `2'F-ANA at 2 4 6 8 11 12 15`, “mean fluorescence intensity” read 439 a.u.

Block 3 — target: CREBRF, bZIP domain (human); method: DHFR protein complementation; sample: yeast; baseline: wild-type JUN-FOS pair; direction: higher = stronger binding
Setting: single substitutions, most at no-binding floor
Parent: JUN, bZIP domain (human); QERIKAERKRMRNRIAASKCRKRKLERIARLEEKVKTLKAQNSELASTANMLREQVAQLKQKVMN; partner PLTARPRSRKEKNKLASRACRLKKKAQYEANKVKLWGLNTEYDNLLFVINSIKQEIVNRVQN
With `A40V` the binding fitness was -1.29 natural log.
For `Q41N`, the binding fitness was -1.55 natural log.
`Q55E` has a binding fitness of -1.52 natural log.
`S43Y` has a binding fitness of -1.53 natural log.
For `K36T`, the binding fitness was -1.27 natural log.
`E32P` has a binding fitness of -1.52 natural log.
`Q55P` has a binding fitness of -1.42 natural log.
For `L38R`, the binding fitness was -1.45 natural log.
`K34E` gave a binding fitness of -1.34 natural log.
`Q41T` has a binding fitness of -1.5 natural log.
For `A40I`, the binding fitness was -1.45 natural log.
For `T37V`, the binding fitness was -1.44 natural log.
`K39T` gave a binding fitness of -1.42 natural log.
For `V35F`, the binding fitness was -1.51 natural log.
With `L38P` the binding fitness was -1.54 natural log.
`A46Y` gave a binding fitness of -1.48 natural log.
With `K34T` the binding fitness was -1.23 natural log.
The binding fitness of `L38H` is reported as -1.58 natural log.
For `T48D`, the binding fitness was -1.25 natural log.
`A40R` has a binding fitness of -1.49 natural log.
`N42Q` has a binding fitness of -1.5 natural log.
`N42C` has a binding fitness of -1.35 natural log.
With `L38E` the binding fitness was -1.51 natural log.
`A49F` gave a binding fitness of -1.49 natural log.
The binding fitness of `Q41V` is reported as -1.42 natural log.

Block 4 — method: protein binding microarray; form: double-stranded DNA, one strand shown; sample: in vitro; concentration: not given; baseline: not given; direction: higher = stronger binding
Target: Histone acetyltransferase KAT6A, winged helix 2, GST fusion (KAT6A, Homo sapiens, UniProt Q92794, residues 85-181)
Setting: 8-mer, flanks averaged, mean of 2 arrays, mostly near background
Construct (chain): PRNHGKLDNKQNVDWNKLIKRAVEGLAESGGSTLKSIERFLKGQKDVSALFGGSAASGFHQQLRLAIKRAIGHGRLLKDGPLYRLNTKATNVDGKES
For `CCAGCGGA`, the E-score was 0.0231.
With `GCGACTAA` the E-score was 0.05.
For `GGGAATAC`, the E-score was -0.0375.
For `AATCCCGA`, the E-score was 0.0593.
The E-score of `ATTCTGCG` is reported as 0.0163.
The E-score of `AGACCGAA` is reported as 0.0894.
`ATTCCGAG` gave an E-score of 0.16.
`ATATGTAA` gave an E-score of 0.0076.
For `ATCGCGGG`, the E-score was -0.00772.
`ATGTCAAG` gave an E-score of -0.0368.
With `AATCAGAA` the E-score was -0.000555.
For `CAAATCGA`, the E-score was -0.107.
For `TAGCTCCA`, the E-score was 0.109.
`CTTTCTTC` has an E-score of 0.0176.
`TCACATGA` has an E-score of -0.125.
For `ACAACGCG`, the E-score was -0.0382.
`CGAACTCG` gave an E-score of 0.133.
`AGGTTGCA` has an E-score of -0.0346.
The E-score of `GACGAGAC` is reported as -0.111.
`TCACGTGA` has an E-score of -0.17.
With `CGAGGTTA` the E-score was 0.000265.
`AGTGTGCA` gave an E-score of 0.0322.
`CAATCACA` gave an E-score of -0.00847.
The E-score of `ATGGAACC` is reported as -0.0689.
For `CACGACGG`, the E-score was 0.0415.

Block 5 — method: universal PBM; form: double-stranded DNA, one strand shown; sample: in vitro; concentration: 600 nM; direction: higher = stronger binding
Target: Sal-like protein 4, full length isoform A (SALL4, Homo sapiens, UniProt Q9UJQ4, residues 1-1053)
Sequence of UniProt Q9UJQ4 (whole entry, looked up): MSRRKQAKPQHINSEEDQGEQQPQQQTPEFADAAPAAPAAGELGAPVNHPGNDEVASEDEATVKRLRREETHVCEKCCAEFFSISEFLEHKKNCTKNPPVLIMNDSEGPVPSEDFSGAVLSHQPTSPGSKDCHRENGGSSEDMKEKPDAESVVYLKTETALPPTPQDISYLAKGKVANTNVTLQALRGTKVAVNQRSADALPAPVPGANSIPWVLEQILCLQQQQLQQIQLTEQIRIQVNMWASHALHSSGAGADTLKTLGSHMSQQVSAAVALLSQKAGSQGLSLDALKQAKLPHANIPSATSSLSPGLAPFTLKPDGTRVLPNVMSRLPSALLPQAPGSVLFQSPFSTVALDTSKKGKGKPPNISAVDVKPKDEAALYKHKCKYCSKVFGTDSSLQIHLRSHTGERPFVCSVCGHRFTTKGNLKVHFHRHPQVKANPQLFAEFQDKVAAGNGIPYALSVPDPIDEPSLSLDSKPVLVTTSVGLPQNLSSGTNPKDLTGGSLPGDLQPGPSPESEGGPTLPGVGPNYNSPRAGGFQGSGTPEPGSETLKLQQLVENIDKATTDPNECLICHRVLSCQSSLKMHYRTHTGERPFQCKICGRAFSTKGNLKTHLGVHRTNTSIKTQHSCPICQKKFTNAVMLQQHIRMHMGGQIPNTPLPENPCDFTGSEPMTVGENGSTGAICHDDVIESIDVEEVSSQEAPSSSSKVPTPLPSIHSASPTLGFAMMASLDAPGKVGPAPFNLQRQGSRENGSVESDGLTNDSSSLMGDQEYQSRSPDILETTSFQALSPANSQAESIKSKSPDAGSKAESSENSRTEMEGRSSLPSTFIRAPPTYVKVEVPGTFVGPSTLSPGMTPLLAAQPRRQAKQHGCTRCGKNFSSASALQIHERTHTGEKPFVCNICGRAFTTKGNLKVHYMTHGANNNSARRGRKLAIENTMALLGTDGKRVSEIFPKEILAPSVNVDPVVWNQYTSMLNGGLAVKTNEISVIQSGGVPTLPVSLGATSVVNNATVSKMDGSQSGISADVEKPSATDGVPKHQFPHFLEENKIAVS
Setting: 8-mer, flanks averaged, mean of replicates
For `CGGTTCAA`, the E-score was -0.188.
With `ACACCCTA` the E-score was -0.0113.
`AGCTGTAG` has an E-score of -0.0241.
For `GTACTGCA`, the E-score was -0.0567.
For `TCCACCAA`, the E-score was -0.0175.
`GATTGCAC` gave an E-score of 0.106.
`TAGAGCTA` has an E-score of -0.0456.
The E-score of `ACACTTAT` is reported as 0.222.
With `CTGCCCGC` the E-score was -0.283.
`AGTATAGC` gave an E-score of 0.0958.
With `GGGAAGTA` the E-score was 0.0679.
`AGCGCAGA` has an E-score of -0.268.
With `ACTACCTA` the E-score was 0.109.
`CATTACTC` gave an E-score of 0.00739.
`CCCCCGGG` has an E-score of -0.427.
`ATAGGAAT` gave an E-score of 0.235.
For `AACCTAAA`, the E-score was 0.195.
The E-score of `GACCGAAA` is reported as -0.0417.
The E-score of `CCGAAGGC` is reported as -0.227.
The E-score of `CAATAAGC` is reported as 0.184.
With `GATGGTTA` the E-score was 0.0983.
`AAGGGAGC` gave an E-score of -0.289.

Other studies, line by line
The fold induction of `PhoQ, residues 284 288 289 292 302 303 SIHLQL` is reported as 14.2 (PhoP, residues 12 14 15 18 19 GHCSL (Escherichia coli, UniProt P23836); Sort-seq, item: YFP reporter; E. coli; PhoQ-PhoP variant library, added: 10 µM Mg2+; baseline: high Mg2+ state, higher = stronger signaling).

For quick reference, copied from above (block 5):
For `CGGTTCAA`, the E-score was -0.188.
With `GATGGTTA` the E-score was 0.0983.
The E-score of `CAATAAGC` is reported as 0.184.
`CCCCCGGG` has an E-score of -0.427.
The E-score of `CCGAAGGC` is reported as -0.227.
With `CTGCCCGC` the E-score was -0.283.
